# Assay results pooled from the literature.
# Every numbered part comes from another study and shows a few of its results, in no order. Several values in a cell are separate wells, animals, samples, runs or records.
# Chain of UniProt Q14289 (whole entry, looked up): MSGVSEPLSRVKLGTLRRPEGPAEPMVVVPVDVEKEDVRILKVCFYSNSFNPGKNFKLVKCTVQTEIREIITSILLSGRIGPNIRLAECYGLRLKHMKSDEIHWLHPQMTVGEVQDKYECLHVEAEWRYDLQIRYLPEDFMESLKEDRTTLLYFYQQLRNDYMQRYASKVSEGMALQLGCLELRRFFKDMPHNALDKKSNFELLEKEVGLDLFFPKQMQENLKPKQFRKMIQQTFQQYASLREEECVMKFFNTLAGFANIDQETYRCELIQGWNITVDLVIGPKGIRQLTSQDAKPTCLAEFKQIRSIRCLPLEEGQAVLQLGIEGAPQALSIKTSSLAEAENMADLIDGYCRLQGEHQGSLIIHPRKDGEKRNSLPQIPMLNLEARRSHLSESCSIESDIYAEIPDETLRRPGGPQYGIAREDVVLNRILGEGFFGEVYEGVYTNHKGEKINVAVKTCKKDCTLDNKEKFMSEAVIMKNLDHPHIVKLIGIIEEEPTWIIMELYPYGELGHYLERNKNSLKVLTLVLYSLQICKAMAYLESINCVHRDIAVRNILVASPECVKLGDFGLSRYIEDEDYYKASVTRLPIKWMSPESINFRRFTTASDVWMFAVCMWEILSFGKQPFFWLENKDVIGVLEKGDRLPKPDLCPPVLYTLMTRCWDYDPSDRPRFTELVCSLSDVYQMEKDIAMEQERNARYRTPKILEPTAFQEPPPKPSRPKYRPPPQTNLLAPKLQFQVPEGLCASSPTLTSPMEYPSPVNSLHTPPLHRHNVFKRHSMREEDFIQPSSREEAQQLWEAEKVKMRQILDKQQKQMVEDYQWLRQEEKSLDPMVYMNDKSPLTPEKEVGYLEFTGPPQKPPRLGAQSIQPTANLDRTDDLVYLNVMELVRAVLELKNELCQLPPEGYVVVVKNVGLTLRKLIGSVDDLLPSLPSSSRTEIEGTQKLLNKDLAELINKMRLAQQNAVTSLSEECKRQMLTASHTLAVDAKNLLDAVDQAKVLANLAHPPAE
# Chain of UniProt P42336 (whole entry, unmodified, looked up): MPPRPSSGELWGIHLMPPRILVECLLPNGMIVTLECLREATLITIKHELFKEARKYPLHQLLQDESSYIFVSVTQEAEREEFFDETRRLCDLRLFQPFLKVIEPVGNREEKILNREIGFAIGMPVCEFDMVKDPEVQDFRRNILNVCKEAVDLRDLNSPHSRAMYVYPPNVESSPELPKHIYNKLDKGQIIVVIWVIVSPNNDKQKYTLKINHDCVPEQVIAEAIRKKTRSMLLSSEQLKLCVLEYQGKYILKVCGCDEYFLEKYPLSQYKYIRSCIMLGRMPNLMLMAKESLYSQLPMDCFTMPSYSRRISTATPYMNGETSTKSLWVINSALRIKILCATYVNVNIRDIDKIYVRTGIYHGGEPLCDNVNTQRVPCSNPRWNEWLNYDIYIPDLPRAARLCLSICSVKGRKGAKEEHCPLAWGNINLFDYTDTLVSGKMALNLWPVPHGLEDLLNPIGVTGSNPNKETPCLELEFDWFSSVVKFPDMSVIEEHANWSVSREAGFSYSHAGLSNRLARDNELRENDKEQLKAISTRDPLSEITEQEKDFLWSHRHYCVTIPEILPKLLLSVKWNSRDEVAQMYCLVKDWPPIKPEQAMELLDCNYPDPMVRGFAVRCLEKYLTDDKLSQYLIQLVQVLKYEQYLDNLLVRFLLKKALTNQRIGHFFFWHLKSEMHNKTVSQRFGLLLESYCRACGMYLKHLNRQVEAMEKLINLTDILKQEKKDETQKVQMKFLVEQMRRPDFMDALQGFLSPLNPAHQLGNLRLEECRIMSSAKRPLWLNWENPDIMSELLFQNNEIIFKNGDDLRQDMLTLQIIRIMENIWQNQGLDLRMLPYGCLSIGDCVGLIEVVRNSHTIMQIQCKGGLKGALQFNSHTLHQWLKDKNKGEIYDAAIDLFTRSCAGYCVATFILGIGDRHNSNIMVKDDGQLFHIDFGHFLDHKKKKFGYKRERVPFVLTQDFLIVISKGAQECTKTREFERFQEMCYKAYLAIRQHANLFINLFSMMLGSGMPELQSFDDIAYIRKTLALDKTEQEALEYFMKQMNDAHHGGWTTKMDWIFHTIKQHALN

# Block 1
# Cell line: mouse MPNST tumor cells
# Method: high-content nuclear imaging
# Item: cell number
# Tested at: 10 µM
# Time: 12 h
# Setting: mean of 2 replicates
# Baseline: plate mean
# Direction: higher = more cells
Compound,nuclei count
C=CCNC(=O)c1cc([N+](=O)[O-])cc2c(=O)[nH]c(Nc3ccc(Cl)c(Cl)c3)nc12,-0.252 z-score
Cc1cccc(N(C)C(=S)Oc2ccc3ccccc3c2)c1,1.61 z-score
FC(F)(F)c1ccc(CNc2ccc(Cc3c[nH]c4ncccc34)cn2)cc1,1.49 z-score
CCc1nn(CCCN2CCN(c3cccc(Cl)c3)CC2)c(=O)n1CCOc1ccccc1,2.09 z-score
CCCCCCCN(CC)CCCC(O)c1ccc(NS(C)(=O)=O)cc1 (centres unmarked),1.32 z-score and 2.24 z-score and 2.32 z-score

# Block 2
# Target: DNA polymerase theta, ATPase domain (POLQ, Homo sapiens, UniProt O75417)
# Chain of UniProt O75417 (whole entry, unmodified, looked up): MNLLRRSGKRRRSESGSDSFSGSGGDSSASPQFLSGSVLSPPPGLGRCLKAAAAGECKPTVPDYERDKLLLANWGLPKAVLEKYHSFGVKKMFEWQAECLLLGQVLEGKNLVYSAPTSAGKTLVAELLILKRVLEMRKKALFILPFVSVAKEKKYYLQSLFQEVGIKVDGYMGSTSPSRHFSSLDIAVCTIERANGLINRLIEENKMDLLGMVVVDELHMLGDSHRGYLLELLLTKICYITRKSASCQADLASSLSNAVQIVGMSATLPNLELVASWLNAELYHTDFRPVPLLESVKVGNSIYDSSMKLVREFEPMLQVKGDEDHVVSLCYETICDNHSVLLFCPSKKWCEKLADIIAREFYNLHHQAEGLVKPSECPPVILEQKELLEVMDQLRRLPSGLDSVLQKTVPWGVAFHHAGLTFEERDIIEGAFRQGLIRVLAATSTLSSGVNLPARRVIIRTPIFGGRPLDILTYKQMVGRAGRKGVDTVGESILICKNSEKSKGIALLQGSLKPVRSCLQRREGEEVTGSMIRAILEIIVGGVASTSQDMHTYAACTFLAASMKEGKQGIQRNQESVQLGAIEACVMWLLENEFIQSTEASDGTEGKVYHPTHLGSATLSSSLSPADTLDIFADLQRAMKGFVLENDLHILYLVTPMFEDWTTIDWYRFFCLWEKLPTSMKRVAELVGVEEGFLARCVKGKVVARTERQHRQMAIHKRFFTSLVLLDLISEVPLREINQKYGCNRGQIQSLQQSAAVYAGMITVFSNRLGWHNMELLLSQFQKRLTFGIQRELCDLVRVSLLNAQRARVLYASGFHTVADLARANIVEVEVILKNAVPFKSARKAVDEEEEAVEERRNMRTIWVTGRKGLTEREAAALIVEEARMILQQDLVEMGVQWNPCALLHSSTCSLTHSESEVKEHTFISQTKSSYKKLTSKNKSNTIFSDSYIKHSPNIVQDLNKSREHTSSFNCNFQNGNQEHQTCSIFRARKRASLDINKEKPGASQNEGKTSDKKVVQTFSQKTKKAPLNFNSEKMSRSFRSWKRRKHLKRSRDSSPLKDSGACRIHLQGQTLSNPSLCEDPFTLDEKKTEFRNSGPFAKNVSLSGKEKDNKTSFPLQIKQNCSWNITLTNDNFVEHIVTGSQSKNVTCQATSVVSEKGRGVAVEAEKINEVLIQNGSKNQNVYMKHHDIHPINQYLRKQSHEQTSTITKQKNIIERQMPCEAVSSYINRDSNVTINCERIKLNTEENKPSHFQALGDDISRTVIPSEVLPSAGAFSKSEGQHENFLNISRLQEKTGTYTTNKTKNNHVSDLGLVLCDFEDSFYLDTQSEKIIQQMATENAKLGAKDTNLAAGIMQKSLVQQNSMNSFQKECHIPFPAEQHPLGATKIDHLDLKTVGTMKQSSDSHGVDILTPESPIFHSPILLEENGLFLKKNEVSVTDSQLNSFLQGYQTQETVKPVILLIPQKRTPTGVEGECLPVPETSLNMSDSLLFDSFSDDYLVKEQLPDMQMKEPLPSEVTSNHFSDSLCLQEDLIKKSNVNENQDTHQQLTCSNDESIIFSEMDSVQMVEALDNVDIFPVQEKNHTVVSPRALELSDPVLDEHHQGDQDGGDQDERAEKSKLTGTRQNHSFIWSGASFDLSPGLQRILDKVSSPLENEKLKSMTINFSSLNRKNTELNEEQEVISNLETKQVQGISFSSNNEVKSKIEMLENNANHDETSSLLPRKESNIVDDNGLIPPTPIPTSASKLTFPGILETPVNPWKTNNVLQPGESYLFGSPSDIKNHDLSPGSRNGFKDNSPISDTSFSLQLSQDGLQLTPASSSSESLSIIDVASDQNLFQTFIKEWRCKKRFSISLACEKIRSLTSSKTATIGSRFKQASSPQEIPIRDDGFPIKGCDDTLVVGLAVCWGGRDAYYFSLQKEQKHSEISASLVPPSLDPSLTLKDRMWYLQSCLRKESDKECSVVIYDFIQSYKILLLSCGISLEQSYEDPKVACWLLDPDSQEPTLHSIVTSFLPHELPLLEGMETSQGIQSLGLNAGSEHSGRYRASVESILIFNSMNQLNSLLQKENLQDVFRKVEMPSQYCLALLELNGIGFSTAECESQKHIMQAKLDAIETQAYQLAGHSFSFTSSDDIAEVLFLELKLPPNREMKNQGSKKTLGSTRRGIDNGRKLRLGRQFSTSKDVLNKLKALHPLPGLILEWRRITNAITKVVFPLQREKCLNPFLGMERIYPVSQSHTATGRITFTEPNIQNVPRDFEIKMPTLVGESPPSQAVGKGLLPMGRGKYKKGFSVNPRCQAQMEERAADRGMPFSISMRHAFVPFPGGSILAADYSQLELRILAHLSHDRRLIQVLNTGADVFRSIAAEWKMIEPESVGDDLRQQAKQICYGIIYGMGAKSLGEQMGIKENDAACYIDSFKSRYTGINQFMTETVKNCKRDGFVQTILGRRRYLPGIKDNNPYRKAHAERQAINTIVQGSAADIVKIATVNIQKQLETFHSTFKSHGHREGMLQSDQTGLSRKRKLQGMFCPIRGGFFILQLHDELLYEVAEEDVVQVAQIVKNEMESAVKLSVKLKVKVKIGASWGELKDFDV
# Observed: enzyme activity
# Action: inhibitor
# Tested at: 77 µM
# Baseline: untreated
SMILES,remaining activity
CC#CCOC(=O)c1c(C)nc2sc3c(c2c1N)CCC(O)C3 (centres unmarked),95.9%
O=C(Nc1ncc(SCCN2CCCC2)s1)[C@]1(c2ccc(S(=O)(=O)C3CC3)cc2)C[C@H]1C1CCCCC1,99.1%
O=C(O)C=Cc1cc(Br)c(Br)c(Br)c1Br,102%
COC(=O)C1=C(C)NC(C)=C([N+](=O)[O-])C1c1ccccc1C(F)(F)F (centres unmarked),101%
Cc1coc2c1C(=O)C(=O)c1c-2ccc2c1CCCC2(C)C,101%
OCCn1cc(-c2cnc3nnn(Cc4ccc5ncccc5c4)c3n2)cn1,110% and 105% and 118% and 116%
COc1ccc(C(Cl)=C(c2ccc(OC)cc2)c2ccc(OC)cc2)cc1,103%
CC[C@H](C)[C@H](N)C1=N[C@H](C(=O)N[C@@H](CC(C)C)C(=O)N[C@H](CCC(=O)O)C(=O)N[C@H](C(=O)N[C@H]2CCCCNC(=O)[C@H](CC(N)=O)NC(=O)[C@@H](CC(=O)O)NC(=O)[C@H](Cc3cnc[nH]3)NC(=O)[C@@H](Cc3ccccc3)NC(=O)[C@H]([C@@H](C)CC)NC(=O)[C@@H](CCCN)NC2=O)[C@@H](C)CC)CS1,102%
CCOc1cc([C@@H](CS(C)(=O)=O)N2C(=O)c3cccc(NC(C)=O)c3C2=O)ccc1OC,97%

# Block 3
# Structure (SMILES): CO[C@@H]1[C@H](N(C)C(=O)c2ccccc2)C[C@H]2O[C@]1(C)n1c3ccccc3c3c4c(c5c6ccccc6n2c5c31)C(=O)NC4
# Observed: enzyme activity
# Action: inhibitor
# Tested at: 1 µM
target,inhibition [%]
"1-phosphatidylinositol 3-phosphate 5-kinase (PIKFYVE, Homo sapiens, UniProt Q9Y2I7)",0
"Protein-tyrosine kinase 2-beta (PTK2B, Homo sapiens, UniProt Q14289)",71
"Serine/threonine-protein kinase DCLK3 (DCLK3, Homo sapiens, UniProt Q9C098)",0
"Dual serine/threonine and tyrosine protein kinase (DSTYK, Homo sapiens, UniProt Q6XUX3)",28
"cAMP-dependent protein kinase catalytic subunit beta (PRKACB, Homo sapiens, UniProt P22694)",68
"Testis-specific serine/threonine-protein kinase 3 (TSSK3, Homo sapiens, UniProt Q96PN8)",41
"Phosphatidylinositol 3-kinase catalytic subunit type 3 (PIK3C3, Homo sapiens, UniProt Q8NEB9)",10
"Cytoplasmic tyrosine-protein kinase BMX (BMX, Homo sapiens, UniProt P51813)",4

# Block 4
# Compound: COc1ccc2cc(OCC3(C(=O)O)CN(C(=O)c4ccc(F)cc4)C3)ccc2c1
# Observed: cell-free assay
# Method: competition with immobilised ligand
# Tested at: 1 µM
target,remaining binding [%]
"Receptor-type tyrosine-protein kinase FLT3 (FLT3, Homo sapiens, UniProt P36888, N841I)",76
"Receptor-interacting serine/threonine-protein kinase 2 (RIPK2, Homo sapiens, UniProt O43353)",100
"Phosphatidylinositol 4,5-bisphosphate 3-kinase catalytic subunit beta isoform (PIK3CB, Homo sapiens, UniProt P42338)",100
"Mitogen-activated protein kinase kinase kinase kinase 3 (MAP4K3, Homo sapiens, UniProt Q8IVH8)",100
"Ephrin type-B receptor 3 (EPHB3, Homo sapiens, UniProt P54753)",99
"Phosphatidylinositol 4-kinase beta (PI4KB, Homo sapiens, UniProt Q9UBF8)",100
"Tyrosine-protein kinase Mer (MERTK, Homo sapiens, UniProt Q12866)",80
"Megakaryocyte-associated tyrosine-protein kinase (MATK, Homo sapiens, UniProt P42679)",100
"Cyclin-dependent kinase 9 (CDK9, Homo sapiens, UniProt P50750)",100
"Cyclin-dependent kinase 5 (CDK5, Homo sapiens, UniProt Q00535)",100
"Serine/threonine-protein kinase 24 (STK24, Homo sapiens, UniProt Q9Y6E0)",85
"Death-associated protein kinase 1 (DAPK1, Homo sapiens, UniProt P53355)",100
"Protein-tyrosine kinase 6 (PTK6, Homo sapiens, UniProt Q13882)",99
"Angiopoietin-1 receptor (TEK, Homo sapiens, UniProt Q02763)",100
"Insulin-like growth factor 1 receptor (IGF1R, Homo sapiens, UniProt P08069)",100
"Phosphatidylinositol 4,5-bisphosphate 3-kinase catalytic subunit alpha isoform (PIK3CA, Homo sapiens, UniProt P42336, E545K)",100
"Protein-tyrosine kinase 2-beta (PTK2B, Homo sapiens, UniProt Q14289)",100
"Ephrin type-A receptor 2 (EPHA2, Homo sapiens, UniProt P29317)",100
"Tyrosine-protein kinase SYK (SYK, Homo sapiens, UniProt P43405)",64
"Tyrosine-protein kinase JAK1, JH2 (JAK1, Homo sapiens, UniProt P23458)",96
"Casein kinase II subunit alpha (CSNK2A1, Homo sapiens, UniProt P68400)",100
"Serine/threonine-protein kinase Sgk1 (SGK1, Homo sapiens, UniProt O00141)",81
"Phosphatidylinositol 4,5-bisphosphate 3-kinase catalytic subunit alpha isoform (PIK3CA, Homo sapiens, UniProt P42336, E545A)",100
"Membrane-associated tyrosine- and threonine-specific cdc2-inhibitory kinase (PKMYT1, Homo sapiens, UniProt Q99640)",100
"LIM domain kinase 1 (LIMK1, Homo sapiens, UniProt P53667)",100

# Block 5
# Target: Calcium/calmodulin-dependent protein kinase type II subunit alpha (CAMK2A, Homo sapiens, UniProt Q9UQM7)
# Chain of UniProt Q9UQM7 (whole entry, looked up): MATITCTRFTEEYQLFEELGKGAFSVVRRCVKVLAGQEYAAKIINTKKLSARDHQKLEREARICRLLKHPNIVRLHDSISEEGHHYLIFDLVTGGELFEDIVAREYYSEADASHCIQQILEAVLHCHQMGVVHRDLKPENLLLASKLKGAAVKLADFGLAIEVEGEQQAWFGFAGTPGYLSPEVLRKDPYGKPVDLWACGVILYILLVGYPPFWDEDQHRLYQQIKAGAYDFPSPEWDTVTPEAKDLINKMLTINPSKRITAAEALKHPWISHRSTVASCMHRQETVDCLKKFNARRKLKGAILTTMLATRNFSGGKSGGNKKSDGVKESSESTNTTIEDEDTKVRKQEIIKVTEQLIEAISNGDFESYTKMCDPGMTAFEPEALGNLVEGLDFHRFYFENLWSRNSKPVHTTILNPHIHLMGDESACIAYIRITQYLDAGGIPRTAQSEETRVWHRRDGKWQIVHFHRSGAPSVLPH
# Observed: enzyme activity
# Action: inhibitor
# Tested at: 10 µM
Structure (SMILES),inhibition [%]
CCC(=O)O[C@H](CC(=O)O)C[N+](C)(C)C,-3
CNC(=O)c1ccc(-c2cnc3ncc(Cc4ccc5ncccc5c4)n3n2)cc1F,7
CCCCCCCCCCCCCCCCCCCCCCCCC(=O)O,-6
CCn1nc(C(=O)O)c(=O)c2cc3c(cc21)OCO3,-7
CC(C)CCCCCCCCC[C@@H]1CC(=O)N[C@@H](CCC(=O)O)C(=O)N[C@@H](CC(C)C)C(=O)N[C@H](CC(C)C)C(=O)N[C@@H](C(C)C)C(=O)N[C@@H](CC(=O)O)C(=O)N[C@H](CC(C)C)C(=O)N[C@@H](CC(C)C)C(=O)O1,-46
CC#CC(=O)N1CCC[C@H]1c1nc(-c2ccc(C(=O)Nc3ccccn3)cc2)c2c(N)nccn12,10

# A few entries again (block 1):
Compound,nuclei count
C=CCNC(=O)c1cc([N+](=O)[O-])cc2c(=O)[nH]c(Nc3ccc(Cl)c(Cl)c3)nc12,-0.252 z-score
Cc1cccc(N(C)C(=S)Oc2ccc3ccccc3c2)c1,1.61 z-score
CCc1nn(CCCN2CCN(c3cccc(Cl)c3)CC2)c(=O)n1CCOc1ccccc1,2.09 z-score
FC(F)(F)c1ccc(CNc2ccc(Cc3c[nH]c4ncccc34)cn2)cc1,1.49 z-score
